Experimental data of several laboratories.
Parts stem from different laboratories: compare values within a part only. Changes are numbered by the printed parent chain.

Series 1 — target: CCNA2, cyclin fold, Cln2 fusion (human); technique: yeast growth competition, sequencing; matrix: yeast; notes: strong parent motif; reference: not given; reading: higher = stronger binding
Starting sequence: PKMYT1 docking peptide (human); SFEPRNLLSLFED
`STEPRNLLSLFED [F2T]`: “normalised enrichment score” 1.15.
Under “normalised enrichment score”, `SFEPRNLLILFED [S9I]` is recorded as 1.61.
Under “normalised enrichment score”, `SMEPRNLLSLFED [F2M]` is recorded as 1.61.
Under “normalised enrichment score”, `SFEPRNYLSLFED [L7Y]` is recorded as -1.08.
For `SGEPRNLLSLFED [F2G]`, “normalised enrichment score” read 0.392.
Under “normalised enrichment score”, `SFEPRKLLSLFED [N6K]` is recorded as 1.25.
`SFEPRNLLSLFEF [D13F]`: “normalised enrichment score” 2.55.
Under “normalised enrichment score”, `SFEPRNLYSLFED [L8Y]` is recorded as 1.2.
Under “normalised enrichment score”, `SFEPRNLLSLGED [F11G]` is recorded as -0.532.
`SFSPRNLLSLFED [E3S]`: “normalised enrichment score” 1.45.
`WFEPRNLLSLFED [S1W]`: “normalised enrichment score” 3.64.
`SFEPINLLSLFED [R5I]` — result for “normalised enrichment score”: 0.98.
`SFEPRNLWSLFED [L8W]`: “normalised enrichment score” -0.398.
`SFEPRNLGSLFED [L8G]`: “normalised enrichment score” 0.364.
`SFEPRNLASLFED [L8A]`: “normalised enrichment score” 2.68.
For `SFEPRNSLSLFED [L7S]`, “normalised enrichment score” read -0.967.
`SFEPRNLLSLFEV [D13V]` — result for “normalised enrichment score”: 2.26.
Under “normalised enrichment score”, `SREPRNLLSLFED [F2R]` is recorded as 0.504.

Series 2 — technique: RNA Bind-n-Seq; molecule type: RNA; matrix: in vitro; concentration: 365 nM; reference: no-protein control; reading: higher = stronger binding
Target: RNA binding protein fox-1 homolog 2, RRM domain, GST-SBP tag (RBFOX2, Homo sapiens, UniProt O43251-10, residues 100-194)
Notes: natural RNA segment, single round, ends assumed
Residues (chain): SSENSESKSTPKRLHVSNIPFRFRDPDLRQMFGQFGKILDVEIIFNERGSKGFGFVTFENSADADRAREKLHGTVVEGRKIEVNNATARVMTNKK
`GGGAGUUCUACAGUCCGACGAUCAGAAAAUAUAUACAUUUAUUUAGCCAAAAGGAAUGAAGAAAGCAUUUACACAUUUGUGUUUUAUCUGAUUCUGUUCAGUUCUCAAGGAACUUUCACAAUGCUUUCCUAGGUGGAAUUCUCGGGUGCCAA` — result for “RBNS enrichment (R)”: 0.627.
Under “RBNS enrichment (R)”, `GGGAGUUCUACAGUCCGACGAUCUCAUACACCCUUUUGCUUACCUAAUUUCAAGAACAAAACAAACAACAAAAAAAUGCUACUCCUAGUUCAGAUGUUGUGCCCUUCAUUUCUAAAGCCGAUGUUUUGCCCUCUGGAAUUCUCGGGUGCCAA` is recorded as 0.628.
Under “RBNS enrichment (R)”, `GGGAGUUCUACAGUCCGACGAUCGAACUCUGUGAAGGGAGGCCCAGAAUGGGUGCUUUCACCAAAAAAUUUGCCCGUUUACAAUCCUAGACGGACUGGGCCAUCAUUAGCUAAUAGCCUUUCUCCCUUGCCAUUGGAAUUCUCGGGUGCCAA` is recorded as 0.329.
`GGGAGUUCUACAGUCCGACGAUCGGUAGGAUCACUCGCAAGGCCUUGUGAAGGAGUCUUACCUAAAACGAAAGAAAUAUCAGGGACUUUUGUUGACUAUUUACAACUCAGUUUUACAUUUAAAUUCAGGCAGUUGGAAUUCUCGGGUGCCAA`: “RBNS enrichment (R)” 0.277.
`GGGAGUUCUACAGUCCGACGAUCCUGUGUAAUUCAUUUUACAAUUUCAAAUUGUUCUGGUGCCAUAAAGUAUACAGACUACUUUAAAGAUUUCCAAAUCCCCUAAUUUACCCCACAACAGCAUGUAAUUUUAGUGGAAUUCUCGGGUGCCAA` — result for “RBNS enrichment (R)”: 3.79.
For `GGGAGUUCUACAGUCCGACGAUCUUAAGUAUGGGAACAGACUGAAAUGGUGUUUCAACCUGCAAGAGACAGAAGCAUAGACAAGUAUAUGAGCCCUUAUGUCCUUAAUGCCAAUCAACUAGAUUGACCUAGGUUGGAAUUCUCGGGUGCCAA`, “RBNS enrichment (R)” read 0.401.
`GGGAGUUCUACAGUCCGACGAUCAAAUUCUUUUGGUAGAAAUCCCUGAAGAGGUGCACCCAUCACUCAGUGCCCAGGGUCCUUUUCUGGCGAGAUGAGGCCAUGCACCACUUGCUCAGCACAGAGGCCAGCUUUGGAAUUCUCGGGUGCCAA`: “RBNS enrichment (R)” 0.258.
Under “RBNS enrichment (R)”, `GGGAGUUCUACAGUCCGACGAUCAAUACAUUUCUUAAAGUUGAAAUCAUUUGCUUCUUCCAUAAUGGGACGUUGAAACUUCUGCUUUCGGAACAGCGUGUGUUGGAAAGCUUGUUUGAGAAUGGCUACUAGAGUGGAAUUCUCGGGUGCCAA` is recorded as 22.1.
`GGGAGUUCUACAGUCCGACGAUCUGCUCGUGUGGCUGGAAGCGCUGUCGAUAAGCUUCACGCACUGGCUUGCCAGUUCUUCAGCUCUAGGACUUGUAGCUUUAAGCAAACGGUGUGGCAUGGGUUGAGUGUGGUGGAAUUCUCGGGUGCCAA`: “RBNS enrichment (R)” 0.627.
`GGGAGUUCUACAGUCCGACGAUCAGUUCCUUUGAGGAGGACCCCCUGGGAGCAGUCAAGCUGGAAGAUAGCUACCUGCAAGACACUACUGUCCCUCUACUUUUGCCAGGAAAGCCACUCUACUAUGAAUGUUAUGGAAUUCUCGGGUGCCAA`: “RBNS enrichment (R)” 0.806.
`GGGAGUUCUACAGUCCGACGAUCCUAUUCAUUAUAGGGCUUGUAUAUAUAAUCUAAAAUGUCAGCAAGGCAUCGGAGAUGGGUUAACAUCUCAAAACAAAAUAGCCUACAAAUGUUCCUUGUGGGAGACUUUGUGGAAUUCUCGGGUGCCAA` — result for “RBNS enrichment (R)”: 0.443.
`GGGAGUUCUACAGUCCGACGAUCUCUCUCCCUCUCUCCCUCUCUCCCUCUCUCUCUCUCCUGCACCUGCUUGAGUAGGACCAUUUAAACACCUAUUAUGCUAUUCUUGAGAUGGGAUUUUUCAAAGCGGCCAAUGGAAUUCUCGGGUGCCAA` — result for “RBNS enrichment (R)”: 1.14.

Series 3 — technique: protein-binding microarray; molecule type: double-stranded DNA, one strand shown; matrix: in vitro; concentration: not given; reading: higher = stronger binding
Target: Myc proto-oncogene protein, bHLH-zipper, MAX partner unstated (MYC, Homo sapiens, UniProt P01106, residues 368-449)
UniProt P01106, sequence (368-449, looked up): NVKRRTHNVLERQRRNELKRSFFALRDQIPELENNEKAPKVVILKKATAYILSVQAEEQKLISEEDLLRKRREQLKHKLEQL
Notes: k-mer, scored over probes, only values ≥0.25
`CACGTTGA` gave an E-score of 0.396.
`ACTCGTGG` gave an E-score of 0.418.
The E-score of `GCATGGCC` is reported as 0.46.
The E-score of `CGTGTGGC` is reported as 0.394.
`GAGCATGC` gave an E-score of 0.424.
`ATGGCATG` gave an E-score of 0.358.
With `ACGCCGTG` the E-score was 0.317.
`CATGCATC` gave an E-score of 0.358.
For `CCTCGTGC`, the E-score was 0.47.
`ATATGGCA` has an E-score of 0.296.
`AGTGCATG` has an E-score of 0.323.
`GTGCCGCA` has an E-score of 0.302.

Series 4 — technique: Sort-seq; measured: YFP reporter; matrix: E. coli; notes: PhoQ-PhoP variant library; together with: 10 µM Mg2+; reference: high Mg2+ state; reading: higher = stronger signaling
Substance: PhoQ, residues 284 288 289 292 302 303 SLANIV
The fold induction was 7.12 (PhoP, residues 12 14 15 18 19 TQALL (Escherichia coli, UniProt P23836)).
PhoP, residues 12 14 15 18 19 NYFRM (Escherichia coli, UniProt P23836) — fold induction: 1.56.
It gave 15.7 for fold induction (PhoP, residues 12 14 15 18 19 QYFSL (Escherichia coli, UniProt P23836)).
